Assay results gathered from unrelated publications.
Lines come from different studies, so protocols differ. Several values in a cell are separate wells, animals, samples, runs or records. ± marks the error that the study gave.
FRK: Tyrosine-protein kinase FRK (FRK, Homo sapiens, UniProt P42685)
UniProt P42685, sequence (whole entry, looked up): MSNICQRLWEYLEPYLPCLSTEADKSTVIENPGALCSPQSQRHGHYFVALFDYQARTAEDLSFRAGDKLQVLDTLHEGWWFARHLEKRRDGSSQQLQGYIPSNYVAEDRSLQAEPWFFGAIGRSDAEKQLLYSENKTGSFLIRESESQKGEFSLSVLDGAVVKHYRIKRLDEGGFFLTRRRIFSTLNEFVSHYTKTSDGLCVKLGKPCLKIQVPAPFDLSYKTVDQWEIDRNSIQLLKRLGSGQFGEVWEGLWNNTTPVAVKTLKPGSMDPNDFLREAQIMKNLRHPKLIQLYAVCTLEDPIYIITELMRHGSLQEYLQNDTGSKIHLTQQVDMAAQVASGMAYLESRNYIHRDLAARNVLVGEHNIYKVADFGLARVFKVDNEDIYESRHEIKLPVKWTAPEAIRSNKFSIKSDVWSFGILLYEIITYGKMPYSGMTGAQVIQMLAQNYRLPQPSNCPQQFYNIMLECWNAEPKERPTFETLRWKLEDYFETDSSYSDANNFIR
MAP3K9: Mitogen-activated protein kinase kinase kinase 9 (MAP3K9, Homo sapiens, UniProt P80192)
UniProt P80192, sequence (whole entry, looked up): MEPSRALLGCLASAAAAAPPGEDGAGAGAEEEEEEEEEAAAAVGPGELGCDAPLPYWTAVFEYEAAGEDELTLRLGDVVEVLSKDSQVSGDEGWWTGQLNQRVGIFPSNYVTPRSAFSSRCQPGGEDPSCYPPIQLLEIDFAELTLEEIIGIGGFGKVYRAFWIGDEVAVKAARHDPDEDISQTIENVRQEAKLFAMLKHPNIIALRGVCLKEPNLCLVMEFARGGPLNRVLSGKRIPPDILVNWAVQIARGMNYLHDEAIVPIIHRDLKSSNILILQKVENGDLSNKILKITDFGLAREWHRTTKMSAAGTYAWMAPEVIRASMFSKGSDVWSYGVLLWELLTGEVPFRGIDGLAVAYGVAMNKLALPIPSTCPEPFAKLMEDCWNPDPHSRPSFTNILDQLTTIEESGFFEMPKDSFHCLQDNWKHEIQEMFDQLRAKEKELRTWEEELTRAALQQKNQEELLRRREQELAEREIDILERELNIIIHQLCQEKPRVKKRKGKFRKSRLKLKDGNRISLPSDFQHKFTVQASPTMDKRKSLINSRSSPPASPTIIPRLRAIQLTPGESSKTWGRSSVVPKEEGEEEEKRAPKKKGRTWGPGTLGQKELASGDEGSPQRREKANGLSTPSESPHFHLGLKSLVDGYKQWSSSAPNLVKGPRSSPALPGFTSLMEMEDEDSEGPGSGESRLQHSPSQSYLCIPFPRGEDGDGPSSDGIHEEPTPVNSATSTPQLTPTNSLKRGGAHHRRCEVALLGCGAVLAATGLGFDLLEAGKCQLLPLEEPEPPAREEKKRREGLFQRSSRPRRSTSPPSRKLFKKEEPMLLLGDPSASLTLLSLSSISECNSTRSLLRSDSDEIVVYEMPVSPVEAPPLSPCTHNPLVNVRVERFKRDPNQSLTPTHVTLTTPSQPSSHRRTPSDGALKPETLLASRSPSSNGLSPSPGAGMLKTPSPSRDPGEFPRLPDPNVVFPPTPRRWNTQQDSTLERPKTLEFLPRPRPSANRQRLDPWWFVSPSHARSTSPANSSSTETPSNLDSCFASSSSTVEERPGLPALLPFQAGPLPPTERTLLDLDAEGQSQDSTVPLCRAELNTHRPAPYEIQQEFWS
MAP3K2: Mitogen-activated protein kinase kinase kinase 2 (MAP3K2, Homo sapiens, UniProt Q9Y2U5)
UniProt P11678, sequence (whole entry, looked up): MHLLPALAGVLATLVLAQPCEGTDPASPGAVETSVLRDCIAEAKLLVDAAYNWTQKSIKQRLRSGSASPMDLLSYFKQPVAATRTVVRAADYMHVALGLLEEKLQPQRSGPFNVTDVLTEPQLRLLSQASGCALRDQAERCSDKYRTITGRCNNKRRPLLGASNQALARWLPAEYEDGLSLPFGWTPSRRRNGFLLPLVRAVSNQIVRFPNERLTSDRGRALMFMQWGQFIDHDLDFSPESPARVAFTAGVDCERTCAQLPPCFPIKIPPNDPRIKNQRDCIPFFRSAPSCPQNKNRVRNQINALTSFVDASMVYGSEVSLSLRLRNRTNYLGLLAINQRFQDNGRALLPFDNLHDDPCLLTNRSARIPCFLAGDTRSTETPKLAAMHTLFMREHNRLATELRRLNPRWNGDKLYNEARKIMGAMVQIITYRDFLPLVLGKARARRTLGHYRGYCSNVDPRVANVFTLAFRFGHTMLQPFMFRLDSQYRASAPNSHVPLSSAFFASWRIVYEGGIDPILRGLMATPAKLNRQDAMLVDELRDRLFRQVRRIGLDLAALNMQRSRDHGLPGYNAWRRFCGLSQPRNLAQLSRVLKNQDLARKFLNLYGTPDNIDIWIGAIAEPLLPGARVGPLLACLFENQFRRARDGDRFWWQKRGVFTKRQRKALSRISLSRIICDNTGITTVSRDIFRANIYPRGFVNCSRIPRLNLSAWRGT
UniProt Q9Y2U5, sequence (whole entry, looked up): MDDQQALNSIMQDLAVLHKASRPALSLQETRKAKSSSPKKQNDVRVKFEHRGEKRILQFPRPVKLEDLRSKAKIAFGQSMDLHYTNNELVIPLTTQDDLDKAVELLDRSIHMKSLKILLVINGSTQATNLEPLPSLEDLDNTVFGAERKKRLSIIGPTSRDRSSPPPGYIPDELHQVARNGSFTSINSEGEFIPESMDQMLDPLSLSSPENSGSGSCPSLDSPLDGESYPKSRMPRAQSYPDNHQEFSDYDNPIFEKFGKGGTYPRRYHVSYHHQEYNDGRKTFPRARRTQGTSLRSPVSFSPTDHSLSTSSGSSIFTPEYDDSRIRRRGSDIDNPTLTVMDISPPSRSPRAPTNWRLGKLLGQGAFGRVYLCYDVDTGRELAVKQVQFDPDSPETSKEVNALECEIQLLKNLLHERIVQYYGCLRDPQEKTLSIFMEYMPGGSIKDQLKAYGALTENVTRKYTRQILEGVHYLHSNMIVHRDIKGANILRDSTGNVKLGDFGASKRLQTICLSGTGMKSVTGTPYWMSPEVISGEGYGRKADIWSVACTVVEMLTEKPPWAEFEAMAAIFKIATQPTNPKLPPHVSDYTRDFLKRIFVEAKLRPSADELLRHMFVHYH
UniProt Q14164, sequence (whole entry, looked up): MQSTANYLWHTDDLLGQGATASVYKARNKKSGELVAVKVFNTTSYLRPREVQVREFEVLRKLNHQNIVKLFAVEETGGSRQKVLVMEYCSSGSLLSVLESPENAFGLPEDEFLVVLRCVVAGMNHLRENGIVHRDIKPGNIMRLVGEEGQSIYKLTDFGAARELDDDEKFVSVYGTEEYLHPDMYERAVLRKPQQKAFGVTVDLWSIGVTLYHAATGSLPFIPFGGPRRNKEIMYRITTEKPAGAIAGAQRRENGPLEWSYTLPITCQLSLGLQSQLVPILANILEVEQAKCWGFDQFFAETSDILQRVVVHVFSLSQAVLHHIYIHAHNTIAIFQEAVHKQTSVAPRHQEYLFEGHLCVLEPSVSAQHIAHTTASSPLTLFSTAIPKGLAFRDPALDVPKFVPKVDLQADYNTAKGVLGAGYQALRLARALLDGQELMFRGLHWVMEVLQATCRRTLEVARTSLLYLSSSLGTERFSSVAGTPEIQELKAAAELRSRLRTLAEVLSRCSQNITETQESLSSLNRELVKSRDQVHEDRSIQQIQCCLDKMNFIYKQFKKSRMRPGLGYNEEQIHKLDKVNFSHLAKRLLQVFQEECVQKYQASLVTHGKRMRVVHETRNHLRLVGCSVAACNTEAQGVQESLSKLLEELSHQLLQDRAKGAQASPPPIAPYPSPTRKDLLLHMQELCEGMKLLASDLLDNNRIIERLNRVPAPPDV
UniProt O15146, sequence (whole entry, looked up): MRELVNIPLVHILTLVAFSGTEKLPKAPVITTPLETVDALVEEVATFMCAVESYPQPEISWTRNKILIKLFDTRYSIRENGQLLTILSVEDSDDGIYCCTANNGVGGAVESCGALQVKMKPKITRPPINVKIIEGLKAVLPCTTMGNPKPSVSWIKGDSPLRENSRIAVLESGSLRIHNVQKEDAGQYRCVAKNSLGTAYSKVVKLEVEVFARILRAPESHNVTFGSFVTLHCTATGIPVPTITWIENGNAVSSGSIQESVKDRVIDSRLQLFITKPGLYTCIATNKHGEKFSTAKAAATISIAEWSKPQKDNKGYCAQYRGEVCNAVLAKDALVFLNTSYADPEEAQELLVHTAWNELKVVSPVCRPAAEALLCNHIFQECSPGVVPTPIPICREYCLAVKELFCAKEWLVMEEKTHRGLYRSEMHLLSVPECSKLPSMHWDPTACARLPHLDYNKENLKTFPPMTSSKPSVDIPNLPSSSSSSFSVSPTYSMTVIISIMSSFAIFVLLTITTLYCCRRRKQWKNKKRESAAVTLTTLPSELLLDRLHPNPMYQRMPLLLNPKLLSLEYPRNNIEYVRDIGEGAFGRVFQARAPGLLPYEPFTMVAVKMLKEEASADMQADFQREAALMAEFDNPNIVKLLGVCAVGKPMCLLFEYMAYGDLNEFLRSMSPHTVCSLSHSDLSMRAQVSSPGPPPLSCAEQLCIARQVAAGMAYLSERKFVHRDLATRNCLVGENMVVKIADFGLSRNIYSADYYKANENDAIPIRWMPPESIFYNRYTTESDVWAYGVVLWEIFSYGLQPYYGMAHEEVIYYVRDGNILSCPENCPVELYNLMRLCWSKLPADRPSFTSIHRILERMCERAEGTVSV
UniProt P45983, sequence (whole entry, looked up): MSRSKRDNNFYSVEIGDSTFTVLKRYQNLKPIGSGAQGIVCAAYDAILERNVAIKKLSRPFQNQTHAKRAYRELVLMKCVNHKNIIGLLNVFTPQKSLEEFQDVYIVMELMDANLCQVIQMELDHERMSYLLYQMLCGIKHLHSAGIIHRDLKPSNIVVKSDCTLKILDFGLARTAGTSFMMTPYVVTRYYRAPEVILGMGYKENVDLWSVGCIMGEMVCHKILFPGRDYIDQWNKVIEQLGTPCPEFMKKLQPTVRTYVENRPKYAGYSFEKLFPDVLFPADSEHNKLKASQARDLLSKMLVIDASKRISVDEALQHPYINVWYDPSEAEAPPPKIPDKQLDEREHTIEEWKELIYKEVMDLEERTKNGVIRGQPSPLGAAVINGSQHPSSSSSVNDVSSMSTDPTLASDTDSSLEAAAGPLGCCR

Cc1cc(NC(=O)c2cccc(NC(=O)/C=C/CN(C)C)c2)ccc1Nc1nccc(-c2cccnc2)n1
remaining activity (MAPK8 (Homo sapiens, UniProt P45983); enzyme activity, inhibitor; 44.44 µM, 18 h, unit not given, added: GSH 10 mM pre-incubation; relative to: vehicle): 0.108

CC#CC(=O)N1CCC[C@H]1c1nc(-c2ccc(C(=O)Nc3ccccn3)cc2)c2c(N)nccn12
remaining activity (FRK; kinase activity, inhibitor, HotSpot radiometric; 100 nM, added: ATP 10 µM): 101.3 ± 1%

Cc1cc(NC(=O)c2cccc3cc(-c4cccc5[nH]nc(N)c45)ccc23)ccc1F
remaining activity (TRPM7 (Homo sapiens, UniProt Q96QT4); enzyme activity, kinase profiling panel; 0.1 µM): 106%

Oc1cccc(-c2nc(N3CCOCC3)c3oc4ncccc4c3n2)c1
remaining activity (AMPK; enzyme activity; 10 µM): 99%

Cc1[nH]c(/C=C2\C(=O)Nc3ccc(F)cc32)c(C)c1C(=O)N[C@H]1CCN(C(=O)N(C)C)C1
remaining activity (JAK2 (Homo sapiens, UniProt O60674); kinase activity, inhibitor; 0.1 µM; relative to: no-compound control): 111%

COc1ccc(Cl)cc1-c1cc(=O)[nH]c(=S)n1CC(N)=O
remaining activity (Myeloperoxidase (MPO, Homo sapiens, UniProt P05164); 0.156 µM, 0.1 h): 102%

Cc1cc(Nc2cc(N3CCN(C)CC3)nc(Sc3ccc(NC(=O)C4CC4)cc3)n2)[nH]n1
remaining activity (MUSK (Homo sapiens, UniProt O15146); kinase activity, KinaseProfiler; 0.03 µM, species human; relative to: control): 91%

O=C(O)c1ccc(Nc2ncc3c(n2)-c2ccc(Cl)cc2C(c2c(F)cccc2F)=NC3)cc1
remaining activity (human HIPK2(h); kinase activity; 1 µM): 112%

C=CC(=O)N1CCC[C@@H](n2nc(-c3ccc(Oc4ccccc4)cc3)c3c(N)ncnc32)C1
remaining activity (PKN3 (Homo sapiens, UniProt Q6P5Z2); kinase activity, inhibitor, HotSpot radiometric; 100 nM, added: ATP 10 µM): 79.3 ± 0.3%

COc1cc(-c2cncc3c2CN(C)Cc2cc(N4CCNCC4)ccc2-3)cc(OC)c1OC
remaining activity (MAP3K9; kinase activity; 1 µM, human enzyme, added: ATP 10 µM; relative to: DMSO control): 106%

COc1ccc(F)cc1C(=O)NCc1ccc(-c2nn([C@@H](C)C(F)(F)F)c(N)c2C(N)=O)cc1
remaining activity (IKBKE (Homo sapiens, UniProt Q14164); kinase activity, inhibitor, HotSpot radiometric; 100 nM, added: ATP 10 µM): 78.7 ± 0.2%

Cc1ccc(NC(=O)c2ccc(C)c(C(F)(F)F)c2)cc1C#Cc1nn(C2CCC(O)CC2)c2ncnc(N)c12 (stereo not shown)
remaining activity (casein kinase 1, yeast; 10 µM, added: 10 µM ATP): 86%

O=C(NC1CCC1)c1ccc2nc(-c3cccc(NS(=O)(=O)NCCN4CCCCC4)c3)cn2c1
remaining activity (PIP4K2B (Homo sapiens, UniProt P78356); enzyme activity; 10 µM): 100%

COc1cc(Nc2cnc(C#N)c(O[C@H](C)CN(C)C)n2)ncc1-c1cnn(C)c1
remaining activity (AMPK; radiometric; 1 µM): 12%

COc1cc(Nc2ncc3c(n2)-c2ccc(Cl)cc2C(c2c(F)cccc2OC)=NC3)ccc1C(=O)O
remaining activity (SGK3 (SGKL); inhibitor, biochemical kinase; 1 µM): 104%

C=CC(=O)N1CCC[C@@H](n2nc(-c3ccc(Oc4ccccc4)cc3)c3c(N)ncnc32)C1
remaining activity (FRK; 0.1 µM): 138%

CC(C)C(=O)Nc1n[nH]c2cc(-c3cccc(NS(=O)(=O)C4CC4)c3)ccc12
remaining activity (PIP5K1C (Homo sapiens, UniProt O60331); ADP-Glo; 370 nM; relative to: DMSO): 92.8%

COc1cc(N2CCN(C)CC2)ccc1Nc1nc(N)n(C(=S)NCc2c(Cl)cccc2Cl)n1
remaining activity (MAP3K2; enzyme activity; 10 µM; relative to: control): 1.4%

NC/C(=C\F)COc1cccc(Cn2c(=S)[nH]c(=O)c3[nH]cnc32)c1
remaining activity (Eosinophil peroxidase (Homo sapiens, UniProt P11678); H2O2 electrode; 15 µM; relative to: control): 59.7% and 28.5% and 35.8%

O=C1NC(=O)/C(=C/c2ccc(-c3ccc(F)cc3O)o2)S1
remaining activity (MAP3K9; enzyme activity; 10 µM): 53%

COc1cc(F)ccc1-c1ncnc(Nc2cccc(C[S@](C)(=N)=O)c2)n1
remaining activity (CLK2 (Homo sapiens, UniProt P49760); kinase activity; 10 µM, added: 10 µM ATP): 75%

CNc1ncc2c(/C=C/C(=O)N3CCC(OC)CC3)nn(Cc3cccc(C(F)(F)F)c3)c2n1
remaining activity (MAP3K2; kinase activity, inhibitor; 1 µM; relative to: untreated control): 103%

Repeated from above:
Cc1cc(NC(=O)c2cccc(NC(=O)/C=C/CN(C)C)c2)ccc1Nc1nccc(-c2cccnc2)n1
remaining activity (MAPK8 (Homo sapiens, UniProt P45983); enzyme activity, inhibitor; 44.44 µM, 18 h, unit not given, added: GSH 10 mM pre-incubation; relative to: vehicle): 0.108
